Published values gathered from unrelated publications.
A part holds a random share of what one study measured.

Study 1
Target: Interferon regulatory factor 5, full length, phosphomimetic (IRF5, Homo sapiens, UniProt Q13568-2, residues 1-514, S451D/S453D/S456D/S462D)
Method: protein-binding microarray
Molecule type: double-stranded DNA, one strand shown
Medium: in vitro
Tested at: 940 nM top
Notes: 60-bp whole probe
With: salmon DNA 0.4 mg/ml
Reference: random background probes
Direction: higher = stronger binding
All sequences stand within: GCCTAGCAC … GTCTTGATTCGCTTGACGCTGCTG
Strand | fitted relative affinity [z-score]
TCATTCTTTTTTTTCTTACTGTGCTAG | 2.01
TTAGGTTTCCCTTCCCTTTAGTGCTAG | 2.56
GACGGTATCGACACTGCGGACGTGCTA | 4.18
GACGATATCAGTCTAGAGACGTGCTAG | -0.342
TTAGGCATCGGACTGGGTTAGTGCTAG | -0.469
TTAGAACTGGGGACTAGATTAGTGCTA | 0.25
TCAAAACTAAGTTTATTACTGTGCTAG | -0.0437
GACGGTCTCGGACTGAGGACGTGCTAG | 0.612
GACGACTTCGGGTTTCGAGACGTGCTA | 1.62
GACGGTTTCCCTTCCCTGACGTGCTAG | 2.09

Study 2
Molecule: PhoQ, residues 284 288 289 292 302 303 DDMDFR
Method: Sort-seq
Measured: YFP reporter
Medium: E. coli
Notes: PhoQ-PhoP variant library
With: 10 µM Mg2+
Reference: high Mg2+ state
Direction: higher = stronger signaling
target | fold induction
PhoP, residues 12 14 15 18 19 LHTVL (Escherichia coli, UniProt P23836) | 0.747
PhoP, residues 12 14 15 18 19 NQCAL (Escherichia coli, UniProt P23836) | 0.68
PhoP, residues 12 14 15 18 19 TQAML (Escherichia coli, UniProt P23836) | 0.715

Study 3
Target: Histone acetyltransferase KAT6A, winged helix 1, GST fusion (KAT6A, Homo sapiens, UniProt Q92794, residues 1-85)
Method: protein binding microarray
Molecule type: double-stranded DNA, one strand shown
Medium: in vitro
Tested at: not given
Notes: 8-mer, flanks averaged, mean of 2 arrays, mostly near background
Reference: not given
Direction: higher = stronger binding
Residues (chain): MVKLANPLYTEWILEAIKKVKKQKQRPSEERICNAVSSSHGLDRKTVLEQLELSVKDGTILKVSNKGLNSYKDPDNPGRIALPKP
Strand | E-score
CAGATAGA | -0.253
ATACAATA | 0.0279
GACCCTCA | -0.285
CCAAAGCC | 0.00734
CGTGATCA | 0.00703
ATGTAAGG | -0.178
ACGCACAA | -0.0704
ATCGGGGG | 0.101
CCGAGACA | -0.0273
AGGTCAAT | -0.0979

Study 4
Target: Hepatocyte nuclear factor 3-alpha (Foxa1, Mus musculus, UniProt P35582, residues 1-468, full length assumed)
Method: EMSA with sequencing
Molecule type: double-stranded DNA, one strand shown
Medium: in vitro
Tested at: 10 and 20 nM
Notes: whole designed probe, mean of two concentrations, ends assumed
Reference: negative control set to 0
Direction: higher = stronger binding
All sequences stand within: GTGAGCGGTGCCCATTGATGGGGAAC … TTTCACTGGGATCGTGGGGAC
Target sequence (chain): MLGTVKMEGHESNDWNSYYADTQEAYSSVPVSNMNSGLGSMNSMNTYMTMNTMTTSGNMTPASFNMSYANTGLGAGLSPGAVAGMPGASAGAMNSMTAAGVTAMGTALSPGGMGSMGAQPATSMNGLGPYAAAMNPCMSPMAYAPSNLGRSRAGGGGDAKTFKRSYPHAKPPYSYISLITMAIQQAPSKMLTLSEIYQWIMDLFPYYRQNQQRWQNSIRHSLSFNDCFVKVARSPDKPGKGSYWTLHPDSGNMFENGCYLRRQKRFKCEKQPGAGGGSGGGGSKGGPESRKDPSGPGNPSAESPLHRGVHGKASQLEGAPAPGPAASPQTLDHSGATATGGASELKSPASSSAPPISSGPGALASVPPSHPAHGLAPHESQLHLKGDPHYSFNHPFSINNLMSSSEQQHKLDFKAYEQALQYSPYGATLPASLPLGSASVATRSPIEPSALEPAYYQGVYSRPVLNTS
Strand | normalised bound fraction [ratio]
ATAATCATTAACTATGGGCTTTTTAAAAAGAATTTTTTCTTTACTTTGCTATTCTTTTCTTTTCTTTCTCATTCTTTTCTTTCCATTTTCAAAGTCAATAAAAGGACCAAGAGAAAATTTCCCATGAAAAATACATGTTTTTATTCTTTAGTTCAATTCTGCTCCTAAAATGTATAAAAGCCAATAGGATTCA | 0.107
ATCTTCCCCCTCTTCCTTGCCCCACCAGCTCACCTTCCCGGGTATATTGGAGATAGGAAATTAATATAAGCCGGCATTCGTTAACCCTCTTCTGGCGCAAACTGCCAAAGTAAACAGATCTAACATGGTCCTTTGGCGACGCCAGGCTCCGGGAGAGCAAAGCACCGTGTCAGGGCCATGATCCGGGGTGGCC | 0.405
CTGGAAAATTATGTAGCCAGTCCTGCTGTCTCATGGTTAGCTTCAGGCAATCAGAGGAGGGAATGGTTTACTCCAGGAGGAATGGTGACTTCTTATTTGCTTATTCCACCCTTCTTTACCTTTGCCTTCAAAATGTTTATTCAGGGAGTCCTACTGCCTGCTGTTACTGGTGTTGGCAGAAGATAGCACTGGT | 0.368
ATCTTCCCCCTCTTCCTTGCCCCACCAGCTCACCTTCCCGGGTTATTTGCAGATAGGAAAATAAATAAAGCCGGCATTCGTTAACCCTCTTCTGGCGCAAACTTCAGTGCTCGTGTGAGTTTACATGGTCCTTTGGCGACGCCAGGCTCCGGGAGAGCAAAGCACCGTGTCAGGGCCATGATCCGGGGTGGCC | 0.347
TAATTCAGATTAAAAAACAAAACGCCCTCTTTTTGGACCTCCAAATTAATTCTGACCATGTCAGAGTGAGAACAAAAGATCCTAGTGTAATTCTTGTTTACATTTTGGACCAACACGCGGTTTTCTTTTCATAGCCTTCCCGCATATGAGAACAAGATGACGCCTCTGTCTGTCCCAAGCCAGGCCCAGGGAC | 0.334
TTGACCACTCTTCAAGTTCAATGACCACATTAAATCCTGAAGAATATTCATCTTTGCCTTTGGAATCATTTGTCCAGACTTCATCATCATCTAAGTAATCTTCACCTTCAGACCCTTACCAGGAGAAAAGGCATGAGCTGGCTGTCTAAAAGGGCCCATCAAATGGGGAGAAATCACCATGTTCTAAAAGGGA | -0.0922
TAATGTCTCCACATATGTTAAGTTTTATTCATATTAAGATAAAATCAACGTATGTAAAACATGGCCTATAAAATCTTGTAAAATCAGGTCCCTGTTTACATTAACCTGGGAGAAAAAGATGAATATTATCTACCTGCTATTATCCTGTCATTTTGTACGTGTTCTCTCAATCCAAACACTTTTACAGAACAGG | 0.191
ATCTTCCCCCTCTTCCTTGCCCCACCAGCTCACCTACGGGGGTTATTTGCAGATAGGAAAATAAATAAAGCCGGCATTCGTTAACGCAGTTCACGCGCATACTGCTGTTTGCTCTGGATGAATCATGGTCCTTTGGCGAGGCGTGGCTCCGGGAGAGCAAAGCACCGTGTCAGGGCCATGATCCGGGGTGGCC | 0.35

A few entries again (study 4):
Strand | normalised bound fraction [ratio]
ATCTTCCCCCTCTTCCTTGCCCCACCAGCTCACCTTCCCGGGTTATTTGCAGATAGGAAAATAAATAAAGCCGGCATTCGTTAACCCTCTTCTGGCGCAAACTTCAGTGCTCGTGTGAGTTTACATGGTCCTTTGGCGACGCCAGGCTCCGGGAGAGCAAAGCACCGTGTCAGGGCCATGATCCGGGGTGGCC | 0.347
ATAATCATTAACTATGGGCTTTTTAAAAAGAATTTTTTCTTTACTTTGCTATTCTTTTCTTTTCTTTCTCATTCTTTTCTTTCCATTTTCAAAGTCAATAAAAGGACCAAGAGAAAATTTCCCATGAAAAATACATGTTTTTATTCTTTAGTTCAATTCTGCTCCTAAAATGTATAAAAGCCAATAGGATTCA | 0.107
